{"data": "Experimental data gathered from unrelated publications", "target": "Sodium-dependent serotonin transporter (Slc6a4, Rattus norvegicus, UniProt P31652)", "note": "Lines come from different studies, so protocols differ. Numbers after ± are the reported error.", "sequence of UniProt P31652 (whole entry, looked up)": "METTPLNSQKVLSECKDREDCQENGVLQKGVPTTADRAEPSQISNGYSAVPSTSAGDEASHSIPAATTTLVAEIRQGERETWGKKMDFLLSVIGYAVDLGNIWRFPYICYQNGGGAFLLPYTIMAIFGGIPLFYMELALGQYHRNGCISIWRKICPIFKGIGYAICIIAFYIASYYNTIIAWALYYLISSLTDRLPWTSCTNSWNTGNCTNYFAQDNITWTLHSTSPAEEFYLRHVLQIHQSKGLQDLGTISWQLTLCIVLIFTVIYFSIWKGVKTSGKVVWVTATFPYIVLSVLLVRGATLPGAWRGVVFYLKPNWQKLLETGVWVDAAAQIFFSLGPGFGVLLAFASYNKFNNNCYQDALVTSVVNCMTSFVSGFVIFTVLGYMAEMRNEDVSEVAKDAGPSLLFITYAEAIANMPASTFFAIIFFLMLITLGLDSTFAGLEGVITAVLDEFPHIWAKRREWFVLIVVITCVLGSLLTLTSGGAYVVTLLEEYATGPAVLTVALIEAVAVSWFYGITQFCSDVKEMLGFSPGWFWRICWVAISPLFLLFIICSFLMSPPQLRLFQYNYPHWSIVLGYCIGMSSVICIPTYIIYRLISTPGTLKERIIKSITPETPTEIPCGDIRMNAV"}
{"SMILES": "CNC(C)C(=O)c1ccccc1 (stereo not drawn)", "assay": "substrate release, releasing agent", "system": "rat brain synaptosomes", "conditions": "with: [3H]5-HT", "endpoint": "EC50", "value": "2590 nM"}
{"SMILES": "CCCN(CCC)CCc1c[nH]c2ccccc12", "assay": "inhibitor", "endpoint": "IC50", "value": "157 ± 16 nM"}
{"SMILES": "C[C@@H]1N=C(N)O[C@@H]1c1ccc2c(c1)OCO2 (racemic)", "assay": "substrate release, releaser", "system": "rat brain synaptosomes", "conditions": "with: [3H]5-HT 5 nM", "endpoint": "EC50", "value": "43.9 ± 6.7 nM"}
{"SMILES": "COc1ccc2[nH]cc(CCNC(C)C)c2c1", "assay": "inhibitor", "endpoint": "IC50", "value": "5440 ± 377 nM"}
{"SMILES": "Cc1ccc([C@H]2OC(N)=N[C@H]2C)cc1 (racemic)", "assay": "substrate release, releaser, [3H]5-HT release", "system": "rat brain synaptosomes", "conditions": "with: [3H]5-HT 5 nM", "endpoint": "EC50", "value": "18.5 ± 2.8 nM"}
{"SMILES": "Fc1ccc(-c2csc(N3CCNCC3)n2)cc1", "assay": "[3H]5-HT uptake, inhibitor", "conditions": "30 min preincubation", "endpoint": "Ki", "value": "190 ± 40 nM"}
{"SMILES": "COC(=O)[C@H]1[C@@H](c2ccc(Cl)c(Cl)c2)C[C@@H]2CC[C@H]1N2CCOCCOCCOCCOCCOCCNC(=O)c1ccc2c(c1)C1(OC2=O)c2ccc(N3CCC3)cc2[Si](C)(C)c2cc(N3CCC3)ccc21", "assay": "ligand displacement, radioligand", "conditions": "cell membranes", "endpoint": "Ki", "value": "43 nM"}
{"SMILES": "COC(=O)[C@H]1[C@@H](c2ccc(SC)c(Br)c2)C[C@@H]2CC[C@H]1N2C", "endpoint": "Ki", "value": "0.6 ± 0.2 nM"}
{"SMILES": "CC(C)NCCc1c[nH]c2ccccc12", "assay": "inhibitor", "endpoint": "IC50", "value": "1490 ± 93 nM"}
{"SMILES": "CCC[C@H](C(=O)c1ccccc1)N1CCCC1", "assay": "transporter uptake, inhibitor, radiometric", "endpoint": "IC50", "value": "> 10000 nM"}
{"SMILES": "CCN(CC)CCc1c[nH]c2ccccc12", "assay": "inhibitor", "endpoint": "IC50", "value": "258 ± 13 nM"}
{"SMILES": "CCCC(NC)C(=O)c1ccc2c(c1)OCO2 (stereo not drawn)", "assay": "transporter uptake, inhibitor, radiometric", "endpoint": "IC50", "value": "1200 nM"}
{"SMILES": "Cc1ccc([C@@H]2OC(N)=N[C@H]2C)cc1 (relative stereo)", "assay": "substrate release, releaser", "system": "rat brain synaptosomes", "conditions": "with: [3H]5-HT 5 nM", "endpoint": "EC50", "value": "59.9 ± 17.2 nM"}
{"SMILES": "Brc1ccc(CN2CCC(CCOC(c3ccccc3)c3ccccc3)CC2)cc1", "assay": "binding", "endpoint": "Ki", "value": "6720 ± 1360 nM"}
{"SMILES": "CNC(C)Cc1ccc2occc2c1 (stereo not drawn)", "assay": "transporter-mediated release, substrate", "system": "rat brain synaptosomes", "conditions": "5 min, with: [3H]5-HT", "endpoint": "EC50", "value": "64 ± 7 nM"}
{"SMILES": "CC(C)N(CCc1c[nH]c2ccccc12)C(C)C", "assay": "inhibitor", "endpoint": "IC50", "value": "288 ± 2.3 nM"}
{"SMILES": "COC(=O)[C@H]1[C@@H](c2ccc(SC(F)(F)F)cc2)C[C@@H]2CC[C@H]1N2C", "endpoint": "Ki", "value": "8 ± 2 nM"}
{"SMILES": "CN1[C@H]2CC[C@@H]1[C@@H](C(=O)N1CCCC1)[C@@H](c1ccc(I)cc1)C2", "assay": "serotonin reuptake, inhibitor", "system": "rat brain synaptosomes", "endpoint": "IC50", "value": "404 nM"}
{"note": "Some of these lines once more:"}
{"SMILES": "Fc1ccc(-c2csc(N3CCNCC3)n2)cc1", "assay": "[3H]5-HT uptake, inhibitor", "conditions": "30 min preincubation", "endpoint": "Ki", "value": "190 ± 40 nM"}
